Measured values pooled from the literature.
Numbered parts are unrelated; each lists some results of a single study.

Set 1
Target: Histone acetyltransferase KAT6A, winged helix 2, GST fusion (KAT6A, Homo sapiens, UniProt Q92794, residues 85-181)
Method: protein binding microarray
Molecule type: double-stranded DNA, one strand shown
Matrix: in vitro
Concentration: not given
Notes: 8-mer, flanks averaged, mean of 2 arrays, mostly near background
Baseline: not given
Direction: higher = stronger binding
Endpoint: E-score
Residues (chain): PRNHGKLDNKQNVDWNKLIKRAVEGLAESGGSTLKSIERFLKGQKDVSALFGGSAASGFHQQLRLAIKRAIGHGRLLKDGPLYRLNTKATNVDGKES
CAGAGCCG: 0.0945
ACCACGCG: -0.0585
AAATACCA: -0.0779
ACGTTACA: 0.046
AGCCAATA: -0.0978
ATGAAGCC: 0.093
AACGCGTG: 0.0342
CTTAAGAA: 0.0711
CGTATACG: -0.115
GGATGCAA: 0.0966
CCCTAGGA: 0.013
CATAGCGG: 0.0126
CATTCAAG: -0.137
AAGAGCAT: -0.0342
GGTTAGAC: 0.015
CATGAATC: -0.037
ACACAACG: -0.131
GGCTCTCA: 0.0461
AACGCGTC: 0.15
ATGCTGGC: 0.0164
TAGCTACA: -0.14
CTTCAAGC: -0.0905

Set 2
Target: RNA binding protein fox-1 homolog 2, RRM domain, GST-SBP tag (RBFOX2, Homo sapiens, UniProt O43251-10, residues 100-194)
Method: RNA Bind-n-Seq
Molecule type: RNA
Matrix: in vitro
Concentration: 365 nM
Notes: natural RNA segment, single round, ends assumed
Baseline: no-protein control
Direction: higher = stronger binding
Endpoint: RBNS enrichment (R)
Constant ends, left off below: GGGAGUUCUACAGUCCGACGAUC … UGGAAUUCUCGGGUGCCAA
Construct (chain): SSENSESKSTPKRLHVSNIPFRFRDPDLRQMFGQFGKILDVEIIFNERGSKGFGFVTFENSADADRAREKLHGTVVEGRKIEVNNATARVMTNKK
ACUGUGGUACAUAUAAGCAACUUUAAUAGGUGAUAAAUGUACAGUAGUUAGAUUUCACCUGCAUAUACAUUUUUCCAUUUUAUGCUCUAUGAUCUGAACAAAAGCUUUUU: 0.991
AAUAAAGCAUUCAAUACACUAUAGAUUCCAAAACAUAACAUUGCACCAAAUAGAAAUGUAUAUUUUAUUAUGCAAUGCCUUAGUCAUAAACUGGGCUCAAACAAUCCUCA: 0.479
UCUUUGCCAGUAAUGGGACACUUCUUUUGGCAUUUCUUGCAGAGUGCUUUUGAGGGACUUGGCUGUACCUCUCUUUGACUAGGAUAUCCCUGAAAGUUGGCCCUUGGUGU: 0.581
CUCUAGACACCACCCAUGCUGCCCCAGGUCUUACACAGUGCGUGGAACAAAGCAGAGACAUUUAUUCACCUUGACUCCCCAGGGAAGCCUUCCACACUAGAUGGUCCAAU: 0.486
GACUGGAGGGCAGAUGGAGAAAGCUGUCCAAGCCUGUCACUAGGCAUGUGGGUUAGACCAGGUUAGACCAAUAAAAAGCUAUGUCUUUACUUUAUGGCAUGUGCUUUUCU: 2.96
CCGCAGCCCUGCCCUGUCCUGUCCUGUCCUGACUUCAUCUCUCCUUCUGCCCAAGUCUGUGUCCCAUCAGACUUGCAGCCUUUCAGCUUAACAGUUGCCCGGUCCUGCUG: 0.747
AAAUAACUUGUAUAGAUUUUGGUUACCUACCCUUAAGUUCCCUCCCGUAGAUUAGCCUUUAGAAGUCAGUGUGGUGGCCGGCAGUGAAGUUUUCUUCACUAACAUUUAUU: 0.52
GGCGUGCGCCACCUCCGCCCAGCUCAGAACUUCACUUUUAAAAGUAAUCUGUUCCCAGUGUGGUAUCUCAAAAUUGUGCUGAGAUUAUCUUAGUAUAUGUAUUGGAUUCC: 0.296
UAAGACCUGGGUUUGGUUCUCAGCACCCAUGUGGCAACUUACAACCAUCCAUAGCUCCAGAUCCAGGGCAUCCAUUGCACCAGGUACACAUGCAGUGCACUUACAAACUU: 0.236
UCUCCUGCCCAUCAUGUUUGGCCCACUAGAUGAAGCUGUACUCAGCAAUUUAGGGAAUGUAACCCUUCUCAGAACUGGCCAUUUUCAGGGGAAGCUUGGGAGAGCAAUAG: 0.483
CCUGAGGGUUGAGUCAGUCUGUCUUGUUUGCUGUGCCACGCCUGAUGCCCAGCCCAGCAGCAUGCUUUGUACACUGAUAUAUUGGGUAAAUUUUGUUGAAUAAAUUAAGC: 1.22
CUCCUGUAACCAUGCAAGCCUGUAGUUGAGUGAUGACCAUACAUAUGGACAGGGUCCCCUCCUGCUGUCCCUCCCUGCUCACACUUGCUCAGAUGCUGCAGUGCAGGGGC: 1.11

Set 3
Target: Prothrombin, mature alpha-thrombin (F2, Homo sapiens, UniProt P00734)
Method: aptamer microarray, sandwich
Molecule type: DNA with 2'F-ANA
Matrix: in vitro
Concentration: 200 nM
Notes: whole 15-mer aptamer, many near background
With: Cy3 exosite-II aptamer, 400 nM
Direction: higher = stronger binding
Endpoint: mean fluorescence intensity
Strand: GGTTGGTGTGGTTGG
2'F-ANA at 2 3 7 9 11 13: 682 a.u.
2'F-ANA at 1 3 4 7 8 9 10 12 13: 73.3 a.u.
2'F-ANA at 3 4 10 11 13 14 15: 320 a.u.
2'F-ANA at 2 3 4 5 6 7 8 9 10 11: 89.3 a.u.
2'F-ANA at 1 4 5 7 9 11 13 14: 45.9 a.u.
2'F-ANA at 1 3 7 10 13 14: 60.9 a.u.
2'F-ANA at 3 5 8 10 15: 129 a.u.
2'F-ANA at 2 4 7 8 9 10 14 15: 67.4 a.u.
2'F-ANA at 3 7 11 12 13 14 15: 702 a.u.
2'F-ANA at 2 4 5 7 9 11 12 15: 96.6 a.u.
2'F-ANA at 1 3 4 8 10 12 14: 85 a.u.
2'F-ANA at 2 3 5 6 7 9 10 11 12 14 15: 75.9 a.u.
2'F-ANA at 1 3 4 6 7 8 10 11 12 14 15: 57.5 a.u.
2'F-ANA at 3 5 6 8 10 11 13 15: 58.3 a.u.
2'F-ANA at 1 2 3 9 10 11 13: 61.3 a.u.
2'F-ANA at 2 8 9 13 15: 349 a.u.
2'F-ANA at 1 3 5 7 9 11 15: 58.8 a.u.
2'F-ANA at 5 9 10 11 13 15: 61.2 a.u.
2'F-ANA at 2 3 5 10 13: 51 a.u.
2'F-ANA at 2 3 5 6 7 9 11 12 13: 109 a.u.
2'F-ANA at 5 7 8 9 12 13 14 15: 46.1 a.u.

Set 4
Target: RING finger protein unkempt homolog, zinc fingers 1-6, GST-SBP tag (UNK, Homo sapiens, UniProt Q9C0B0, residues 30-357)
Chain of UniProt Q9C0B0 (30-357, looked up): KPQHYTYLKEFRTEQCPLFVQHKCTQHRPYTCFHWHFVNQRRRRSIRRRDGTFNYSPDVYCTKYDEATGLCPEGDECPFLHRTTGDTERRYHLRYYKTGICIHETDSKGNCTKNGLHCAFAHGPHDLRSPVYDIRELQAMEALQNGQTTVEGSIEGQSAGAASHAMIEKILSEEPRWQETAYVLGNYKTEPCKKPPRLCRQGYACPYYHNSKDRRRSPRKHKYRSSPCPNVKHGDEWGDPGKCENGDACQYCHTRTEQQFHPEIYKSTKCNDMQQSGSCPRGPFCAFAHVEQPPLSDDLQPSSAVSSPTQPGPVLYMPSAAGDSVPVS
Method: RNA Bind-n-Seq
Molecule type: RNA
Matrix: in vitro
Concentration: not given
Notes: RNA with constant flanks, human-mouse chimeric sites, ends assumed
Baseline: input RNA pool
Direction: higher = stronger binding
Endpoint: bound/input enrichment
Constant ends, left off below: GGGAGUUCUACAGUCCGACGAUC … CAACAGAGGAUUGAGCAUCA
GAUGAUAAUCACACAAACAAGUCACUGUUACAUGACCAGAGUUGUACUUCUUUUCCUGAUUAGUAUUCUCCCUGGAACCACUGGUCAAGGGGAAUCAAGACGACAAGAACCCGGGGACUU: 0.155 ratio
CCAAUUGUGGAGCAGUACUUGAAGACAAAGAAAAAUUCUAAUAAUUUAAUCAUCAAGUACAUUAGCUGCCGCCUGCUGACAUUUGUGGUUAUACUGUUAGCGUGUAUCUACCUGGGCUAU: 0.348 ratio
AUCAAAUACUUUGGGGACAUCAUUAGUGUGGGACAGAGACUGUUGCAAGGAGCUCGGAUCUUAGGGAUUCCAGUUAUCAUAACGGAACAAUACCCUAAAGGACUUGGCAGCACCGUUCAA: 0.181 ratio
UUGAAAACAAACUGAUUUAAGUUUGAGUAUCACAAUGUUAGCUUUCUAAUUCCAUAAAAGUACUUGGUUUUUACAGUUUAUAAUCUGCAAUCCAUCAAGCGCCAUUUGUAAAGAGCAACU: 0.194 ratio
GAUAAGAAAAGCUUGUUGGAGACCCGCUUGCAUGUCACUGGUAGAGACCUGAGGUGUCAAAUAGCUGAAACUUUCGGAUUUCAAGAAAAUUAUAUCAAGAUCGUAAUAAAUAAGAAGCAG: 0.684 ratio
ACAGUUAUAUUGUUGAGUUUCAUUUUCAUAUAUUCUUAUGGUGUCUGCUUGCCUGUGACUUCUGGUAAAAUAAAAUAAGCCUUUGAAAAUAUUUUAGCAUGGUAUUUUUCUAAAAAUAAA: 1.36 ratio
UAUAAUAAUCAUGAAAUUCGUUCCGGGAAACAUAUUGGUGUCUGCAUCUCAGUUGCCAACAAUAGGCUUUUUGUGGGCUCGAUUCCUAAGAGUAAAACCAAGGAGCAGAUUCUUGAGGAA: 3.51 ratio
GGGACUGAUUCAUCCCAAGGACAGGCAACCCCAUUUGAUGCCUGGACUGACGACAGUAUGGAAGGGCCUAGUCAAAAUGUUGAAGCUGAGUCAAUUCAGGAUGCCAUGAGUAUGGAAGAG: 0.382 ratio
AAAGUGAUAACCAUGUUUGUCCAACGACAGGUAUUUUCGGAGAGCAAAGAUGAGAUUGCGUUAGUCCUCUAUGGCACAGAUGGCACUGACAAUCCCCUUGCUGGCAAGGACCAGUAUCAG: 0.188 ratio
GAUAAGAAAAGCUUGUUGGAGACCCGCUUGCAUGUCACUGGUAGAGAACUGAGGUCCAAAAUAGCUGAAACUUUCGGAUUUCAAGAAAAUUACAUCAAGAUCGUAAUAAAUAAGAAACAG: 0.443 ratio
GCGGCAGAAUCAUGGAGGACAUGAUGGAGCUCCCCAAAGCGCGCGUCAACGCCAGCAUGCUAGCUCAGUAUAUCGACCGGCCCGUGUGCUUCGUGGGGAAGCUGGAAAAGAUUCAUCCCA: 0.102 ratio

Some of these lines once more (set 1):
CGTATACG: -0.115
GGATGCAA: 0.0966
CCCTAGGA: 0.013
